{"data": "Measurements collected from several papers", "note": "± marks the error that the study gave.", "UniProt P05177, sequence (whole entry, looked up)": "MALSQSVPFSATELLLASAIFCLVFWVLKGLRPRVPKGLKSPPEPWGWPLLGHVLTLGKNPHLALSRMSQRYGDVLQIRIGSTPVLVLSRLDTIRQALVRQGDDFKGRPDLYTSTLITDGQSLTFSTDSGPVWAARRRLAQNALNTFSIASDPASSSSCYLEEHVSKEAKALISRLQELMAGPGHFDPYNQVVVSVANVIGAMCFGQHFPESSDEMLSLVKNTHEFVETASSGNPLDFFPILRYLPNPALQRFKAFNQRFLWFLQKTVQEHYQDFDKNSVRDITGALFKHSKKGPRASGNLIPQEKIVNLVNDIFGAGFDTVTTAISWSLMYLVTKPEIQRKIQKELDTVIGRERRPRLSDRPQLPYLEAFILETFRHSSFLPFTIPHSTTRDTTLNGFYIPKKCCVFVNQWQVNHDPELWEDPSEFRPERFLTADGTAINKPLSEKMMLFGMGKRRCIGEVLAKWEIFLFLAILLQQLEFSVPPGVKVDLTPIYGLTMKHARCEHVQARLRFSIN", "UniProt P08684, sequence (whole entry, looked up)": "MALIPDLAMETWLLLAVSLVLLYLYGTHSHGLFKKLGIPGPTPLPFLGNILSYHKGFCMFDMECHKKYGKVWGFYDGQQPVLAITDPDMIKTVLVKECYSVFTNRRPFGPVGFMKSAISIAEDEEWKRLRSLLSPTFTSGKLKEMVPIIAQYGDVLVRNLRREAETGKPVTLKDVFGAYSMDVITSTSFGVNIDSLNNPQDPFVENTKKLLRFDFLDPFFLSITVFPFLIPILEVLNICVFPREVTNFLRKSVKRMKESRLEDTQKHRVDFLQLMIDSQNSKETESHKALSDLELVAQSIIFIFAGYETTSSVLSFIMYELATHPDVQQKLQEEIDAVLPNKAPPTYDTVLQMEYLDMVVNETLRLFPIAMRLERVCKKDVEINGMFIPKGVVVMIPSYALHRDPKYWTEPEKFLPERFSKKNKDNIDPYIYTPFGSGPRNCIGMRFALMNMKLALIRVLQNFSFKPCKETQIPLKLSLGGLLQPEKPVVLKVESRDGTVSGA"}
{"SMILES": "CNC(=O)Oc1cccc2c1OC(C)(C)C2O (centres unmarked)", "target or system": "SH-SY5Y", "test": "cell viability", "conditions": "freely dissolved concentration", "quantity": "IC10", "value": "82.2 µM"}
{"SMILES": "CC(C)CC(=O)OC[C@H]1O[C@@](C#N)(c2ccc3c(N)ncnn23)[C@H](O)[C@@H]1O", "target or system": "Cytochrome P450 1A2 (CYP1A2, Homo sapiens, UniProt P05177)", "test": "metabolic stability", "test system": "recombinant enzyme", "conditions": "1 µM", "quantity": "half-life", "value": "> 4.13 h"}
{"SMILES": "Cc1cc(C(=O)NC(C)(C)COc2cccc3c2C(N)=NS(=O)(=O)N3)cc(C)n1", "target or system": "Salmonella typhimurium", "test": "Ames test, initial", "test system": "TA1537", "conditions": "150 µg/plate, with: rat liver S9", "scale": "reference: solvent control", "quantity": "revertant ratio", "value": 1.3}
{"SMILES": "O=[N+]([O-])c1ccc(N2CCN(CCC(O)c3ccc(F)cc3)CC2)c(C(F)(F)F)c1 (centres unmarked)", "target or system": "Salmonella typhimurium", "test": "genotoxicity, SOS/umu test", "test system": "TA1535/pSK1002", "conditions": "0.008 mg/mL, 4 h, with S9, lower range", "quantity": "induction factor", "value": 0.7}
{"SMILES": "COc1cccc(-c2n[nH]c(SCc3ccccn3)n2)c1OC", "target or system": "Escherichia coli", "test": "Ames test, preincubation", "test system": "WP2 uvrA", "conditions": "5.0 mg/plate, without S9", "quantity": "revertant colonies per plate", "value": 12}
{"SMILES": "Cc1ncc2n1-c1ccc(Cl)cc1C(c1ccccc1F)=NC2", "test system": "wild-type mouse, plasma", "conditions": "intravenous, 0.3 mg/kg, 14-day CMC pretreatment", "quantity": "AUC(0-90 min)", "value": "0.148 ± 0.0392 µM·h"}
{"SMILES": "COc1ncnn2ccc(-c3cnc4nc(C)n(Cc5nnc([C@@H](C)F)o5)c4c3)c12", "test system": "human", "conditions": "oral, dose not given, grade 4", "quantity": "patients with dehydration", "value": "0%"}
{"SMILES": "CN1CC[C@@H](c2c(O)cc(O)c3c(=O)cc(-c4ccc(C(F)(F)F)cc4Cl)oc23)[C@@H]1CO", "test": "measured: Hypoalbuminemia", "test system": "relapsed B-cell malignancies", "conditions": "oral, 200 mg, grade 3-4, intermittent dosing", "quantity": "patients with adverse event", "value": "0%"}
{"SMILES": "CC[C@H](C)[C@H](NC(=O)[C@H](CC(C)C)NC(=O)[C@H](CC(C)C)NC(=O)[C@H](CC(C)C)NC(=O)[C@@H](NC(=O)[C@@H](NC(=O)[C@H](CCCCN)NC(=O)[C@H](CCCCN)NC(=O)[C@H](CCCCN)NC(=O)[C@H](CCCCN)NC(=O)[C@H](CC(C)C)NC(=O)[C@H](CCCNC(=N)N)NC(=O)[C@H](CO)NC(=O)[C@@H](N)CO)[C@@H](C)CC)C(C)C)C(=O)N[C@@H](CO)C(=O)N[C@@H](CCCCN)C(=O)N[C@@H](CCCCN)C(=O)N[C@@H](CCCCN)C(=O)N[C@@H](CCCCN)C(N)=O", "target or system": "human erythrocytes", "conditions": "400 µM, 1 h", "scale": "reference: Triton X-100", "quantity": "hemolysis", "value": "16%"}
{"SMILES": "CCN(CC)C(=O)[C@@H]1C=C2c3cccc4[nH]cc(c34)C[C@H]2N(C)C1", "test": "measured: impaired balance", "test system": "healthy volunteers", "conditions": "dose not given, 12 to 24 h", "scale": "reference: placebo, direction not given", "quantity": "List of Complaints score", "value": 2}
{"SMILES": "CO[C@H]1C[C@@H]2CC[C@@H](C)[C@@](O)(O2)C(=O)C(=O)N2CCCC[C@H]2C(=O)O[C@H]([C@H](C)C[C@@H]2CC[C@@H](OC(=O)NCCOCCOCCOCCOCCOCCOCCOCCOCCC(=O)N3CCc4cc(Cn5nc(-c6ccc7oc(N)nc7c6)c6c(N)ncnc65)ccc4C3)[C@H](OC)C2)C[C@@H](O)[C@H](C)/C=C(\\C)[C@@H](O)[C@@H](OC)C(=O)[C@H](C)C[C@H](C)/C=C/C=C/C=C/1C", "test": "phase 1 dose escalation", "test system": "advanced solid tumour patients", "conditions": "intravenous, 10 mg weekly, grade ≥3", "quantity": "deaths due to TRAEs", "value": "0%"}
{"SMILES": "CC[C@H](C)[C@H](NC(=O)[C@H](C)NC(=O)[C@H](CCCNC(=N)N)NC(=O)[C@H](CCCNC(=N)N)NC(=O)[C@H](CCCNC(=N)N)NC(=O)[C@H](CCCNC(=N)N)NC(=O)[C@H](CCCNC(=N)N)NC(=O)[C@@H](N)CCCNC(=N)N)C(=O)N[C@@H](CO)C(=O)NCC(=O)N[C@@H](CO)C(=O)N[C@@H](CC(C)C)C(=O)N[C@H](C(=O)N[C@H](C(=O)N[C@@H](CC(C)C)C(=O)N[C@@H](Cc1ccccc1)C(=O)NCC(=O)N[C@@H](Cc1ccc(O)cc1)C(N)=O)[C@@H](C)O)C(C)C", "target or system": "human erythrocytes", "conditions": "400 µM, 1 h", "scale": "reference: Triton X-100", "quantity": "hemolysis", "value": "13%"}
{"SMILES": "COc1cc2c(Oc3ccc4[nH]c(C)cc4c3F)ccnc2cc1OCC1(N)CC1", "test system": "paediatric recurrent refractory sarcoma", "conditions": "12 mg", "quantity": "grade 3 Hematuria", "value": "0%"}
{"SMILES": "CC[C@H](C)[C@H](NC(=O)[C@H](CCCNC(=N)N)NC(=O)[C@H](CCCNC(=N)N)NC(=O)[C@H](CCCNC(=N)N)NC(=O)[C@H](CCCNC(=N)N)NC(=O)[C@H](CCCNC(=N)N)NC(=O)[C@@H](N)CCCNC(=N)N)C(=O)N[C@@H](CO)C(=O)N[C@@H](Cc1ccccc1)C(=O)N[C@@H](CC(C)C)C(=O)NCC(=O)N[C@@H](CO)C(=O)N[C@@H](CCCCN)C(=O)N[C@@H](CCCCN)C(=O)N[C@@H](CCCCN)C(=O)N[C@@H](CCCCN)C(=O)N[C@@H](CCCCN)C(=O)N[C@@H](CC(C)C)C(=O)N[C@@H](CC(C)C)C(=O)N[C@@H](CCCCN)C(=O)N[C@@H](CCCNC(=N)N)C(N)=O", "target or system": "human erythrocytes", "conditions": "400 µM, 1 h", "scale": "reference: Triton X-100", "quantity": "hemolysis", "value": "2%"}
{"SMILES": "O=C1c2c(O)c(=O)ccn2N([C@@H]2c3ccccc3SCc3c2ccc(F)c3F)[C@@H]2COCCN12", "test system": "BALB/c mice, plasma", "conditions": "oral, 0.5 mg/kg baloxavir marboxil, 2 h", "quantity": "plasma concentration", "value": "3.75 ng/mL"}
{"SMILES": "CC[C@H](C)[C@H](NC(=O)[C@H](CC(C)C)NC(=O)[C@@H](NC(=O)[C@H](CCCNC(=N)N)NC(=O)[C@H](CCCNC(=N)N)NC(=O)[C@H](CCCNC(=N)N)NC(=O)[C@@H](N)CCCNC(=N)N)[C@@H](C)CC)C(=O)N[C@@H](CCCCN)C(=O)N[C@@H](CCCCN)C(=O)N[C@H](C(=O)N[C@@H](CC(C)C)C(=O)N[C@@H](CCCCN)C(=O)N[C@@H](CC(C)C)C(=O)N[C@@H](CCCCN)C(=O)N[C@@H](CO)C(=O)N[C@@H](CO)C(=O)N[C@@H](C)C(=O)N[C@@H](Cc1ccc(O)cc1)C(N)=O)C(C)C", "target or system": "human erythrocytes", "conditions": "400 µM, 1 h", "scale": "reference: Triton X-100", "quantity": "hemolysis", "value": "9%"}
{"SMILES": "Cc1ncc2n1-c1ccc(Cl)cc1C(c1ccccc1F)=NC2", "target or system": "Cytochrome P450 3A4 (CYP3A4, Homo sapiens, UniProt P08684)", "test system": "human, plasma", "conditions": "oral, 2 mg, day 1, alone, geometric mean", "quantity": "Cmax", "value": "7.51 ng/mL"}
{"note": "For quick reference, copied from above:"}
{"SMILES": "Cc1ncc2n1-c1ccc(Cl)cc1C(c1ccccc1F)=NC2", "target or system": "Cytochrome P450 3A4 (CYP3A4, Homo sapiens, UniProt P08684)", "test system": "human, plasma", "conditions": "oral, 2 mg, day 1, alone, geometric mean", "quantity": "Cmax", "value": "7.51 ng/mL"}
{"SMILES": "COc1cc2c(Oc3ccc4[nH]c(C)cc4c3F)ccnc2cc1OCC1(N)CC1", "test system": "paediatric recurrent refractory sarcoma", "conditions": "12 mg", "quantity": "grade 3 Hematuria", "value": "0%"}
{"SMILES": "COc1ncnn2ccc(-c3cnc4nc(C)n(Cc5nnc([C@@H](C)F)o5)c4c3)c12", "test system": "human", "conditions": "oral, dose not given, grade 4", "quantity": "patients with dehydration", "value": "0%"}
